Measurements gathered from unrelated publications.
Each line is one published result; not all experiments were run side by side. Numbers after ± are the reported error. Converted amounts (≈) assume the structure as drawn.
AGTR2: Type-2 angiotensin II receptor (AGTR2, Homo sapiens, UniProt P50052)
UniProt P50052, sequence (whole entry, looked up): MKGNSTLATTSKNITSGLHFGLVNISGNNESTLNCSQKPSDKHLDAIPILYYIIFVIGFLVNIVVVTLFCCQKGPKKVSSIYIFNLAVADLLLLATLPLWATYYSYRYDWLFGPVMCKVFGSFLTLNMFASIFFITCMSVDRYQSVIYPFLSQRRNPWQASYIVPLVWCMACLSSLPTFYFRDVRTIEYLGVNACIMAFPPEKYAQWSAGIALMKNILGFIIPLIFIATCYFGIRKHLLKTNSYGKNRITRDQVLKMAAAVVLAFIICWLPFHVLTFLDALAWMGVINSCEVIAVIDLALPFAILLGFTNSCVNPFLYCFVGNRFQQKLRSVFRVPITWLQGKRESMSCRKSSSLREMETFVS
POLB I260M: DNA polymerase beta (POLB, Homo sapiens, UniProt P06746, I260M)
SCTR: Secretin receptor (SCTR, Homo sapiens, UniProt P47872)
UniProt P47872, sequence (whole entry, looked up): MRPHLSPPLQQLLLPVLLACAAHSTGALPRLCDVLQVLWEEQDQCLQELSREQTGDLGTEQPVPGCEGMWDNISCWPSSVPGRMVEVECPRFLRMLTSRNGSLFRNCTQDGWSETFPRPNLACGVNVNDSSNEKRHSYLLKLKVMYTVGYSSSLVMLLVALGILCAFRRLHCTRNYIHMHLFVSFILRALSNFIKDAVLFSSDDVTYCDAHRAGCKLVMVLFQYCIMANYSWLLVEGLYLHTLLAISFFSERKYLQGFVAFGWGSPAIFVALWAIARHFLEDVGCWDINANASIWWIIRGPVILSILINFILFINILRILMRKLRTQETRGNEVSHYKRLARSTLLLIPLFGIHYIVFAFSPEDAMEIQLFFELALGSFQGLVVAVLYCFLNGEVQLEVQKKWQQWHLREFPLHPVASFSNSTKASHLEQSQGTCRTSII
UniProt P10636, sequence (whole entry, looked up): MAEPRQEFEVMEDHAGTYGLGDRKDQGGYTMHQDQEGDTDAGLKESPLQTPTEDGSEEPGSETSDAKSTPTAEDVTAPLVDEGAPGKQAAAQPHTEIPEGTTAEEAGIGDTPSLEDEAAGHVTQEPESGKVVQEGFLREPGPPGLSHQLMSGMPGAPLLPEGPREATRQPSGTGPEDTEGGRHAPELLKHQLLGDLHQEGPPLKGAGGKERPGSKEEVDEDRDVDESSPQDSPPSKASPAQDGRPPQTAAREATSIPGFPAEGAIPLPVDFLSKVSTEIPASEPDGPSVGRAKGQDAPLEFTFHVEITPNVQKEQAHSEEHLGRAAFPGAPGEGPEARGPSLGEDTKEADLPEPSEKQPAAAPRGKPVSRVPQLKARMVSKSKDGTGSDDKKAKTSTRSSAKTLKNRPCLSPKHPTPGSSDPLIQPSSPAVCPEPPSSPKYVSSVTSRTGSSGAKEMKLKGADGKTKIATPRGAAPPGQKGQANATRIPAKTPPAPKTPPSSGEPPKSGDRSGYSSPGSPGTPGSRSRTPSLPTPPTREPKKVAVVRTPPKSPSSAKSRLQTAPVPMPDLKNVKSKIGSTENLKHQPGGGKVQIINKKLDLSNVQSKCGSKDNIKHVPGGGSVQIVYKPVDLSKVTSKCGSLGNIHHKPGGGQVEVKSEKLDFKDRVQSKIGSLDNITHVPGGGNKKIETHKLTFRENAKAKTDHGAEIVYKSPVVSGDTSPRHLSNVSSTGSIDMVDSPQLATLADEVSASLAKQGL
UniProt Q6GI75, sequence (whole entry, looked up): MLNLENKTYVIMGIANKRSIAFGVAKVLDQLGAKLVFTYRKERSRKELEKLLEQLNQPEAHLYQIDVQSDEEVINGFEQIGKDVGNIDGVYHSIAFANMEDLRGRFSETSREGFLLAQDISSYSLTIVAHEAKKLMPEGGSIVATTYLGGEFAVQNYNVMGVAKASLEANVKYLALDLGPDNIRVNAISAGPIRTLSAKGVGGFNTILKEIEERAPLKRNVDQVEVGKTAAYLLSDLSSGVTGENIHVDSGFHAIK
UniProt Q8NGN2, sequence (whole entry, looked up): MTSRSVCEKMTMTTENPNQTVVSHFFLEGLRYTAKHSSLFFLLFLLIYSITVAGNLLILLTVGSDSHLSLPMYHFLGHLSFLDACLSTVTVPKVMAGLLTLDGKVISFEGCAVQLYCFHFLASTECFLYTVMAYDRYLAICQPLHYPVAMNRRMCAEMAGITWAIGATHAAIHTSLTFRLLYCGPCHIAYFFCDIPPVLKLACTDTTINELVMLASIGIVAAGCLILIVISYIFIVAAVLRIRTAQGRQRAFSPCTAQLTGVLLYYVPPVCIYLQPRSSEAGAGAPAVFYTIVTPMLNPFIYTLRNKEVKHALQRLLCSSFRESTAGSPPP
UniProt P31941, sequence (whole entry, looked up): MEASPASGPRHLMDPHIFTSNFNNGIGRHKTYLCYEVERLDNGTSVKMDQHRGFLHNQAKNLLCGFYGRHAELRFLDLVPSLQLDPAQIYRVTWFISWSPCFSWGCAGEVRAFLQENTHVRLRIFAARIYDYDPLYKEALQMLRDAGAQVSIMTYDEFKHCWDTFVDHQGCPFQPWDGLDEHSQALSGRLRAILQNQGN
UniProt P49662, sequence (whole entry, looked up): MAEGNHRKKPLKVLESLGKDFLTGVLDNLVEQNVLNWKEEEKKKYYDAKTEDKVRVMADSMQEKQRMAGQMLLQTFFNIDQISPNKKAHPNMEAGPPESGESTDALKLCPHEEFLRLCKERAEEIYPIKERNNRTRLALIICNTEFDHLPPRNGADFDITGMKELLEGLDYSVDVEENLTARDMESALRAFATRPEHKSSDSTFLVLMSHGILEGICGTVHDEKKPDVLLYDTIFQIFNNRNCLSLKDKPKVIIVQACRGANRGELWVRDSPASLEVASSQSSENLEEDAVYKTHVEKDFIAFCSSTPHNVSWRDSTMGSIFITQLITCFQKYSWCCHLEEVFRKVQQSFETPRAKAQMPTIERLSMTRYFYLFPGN
UniProt P35968, sequence (whole entry, looked up): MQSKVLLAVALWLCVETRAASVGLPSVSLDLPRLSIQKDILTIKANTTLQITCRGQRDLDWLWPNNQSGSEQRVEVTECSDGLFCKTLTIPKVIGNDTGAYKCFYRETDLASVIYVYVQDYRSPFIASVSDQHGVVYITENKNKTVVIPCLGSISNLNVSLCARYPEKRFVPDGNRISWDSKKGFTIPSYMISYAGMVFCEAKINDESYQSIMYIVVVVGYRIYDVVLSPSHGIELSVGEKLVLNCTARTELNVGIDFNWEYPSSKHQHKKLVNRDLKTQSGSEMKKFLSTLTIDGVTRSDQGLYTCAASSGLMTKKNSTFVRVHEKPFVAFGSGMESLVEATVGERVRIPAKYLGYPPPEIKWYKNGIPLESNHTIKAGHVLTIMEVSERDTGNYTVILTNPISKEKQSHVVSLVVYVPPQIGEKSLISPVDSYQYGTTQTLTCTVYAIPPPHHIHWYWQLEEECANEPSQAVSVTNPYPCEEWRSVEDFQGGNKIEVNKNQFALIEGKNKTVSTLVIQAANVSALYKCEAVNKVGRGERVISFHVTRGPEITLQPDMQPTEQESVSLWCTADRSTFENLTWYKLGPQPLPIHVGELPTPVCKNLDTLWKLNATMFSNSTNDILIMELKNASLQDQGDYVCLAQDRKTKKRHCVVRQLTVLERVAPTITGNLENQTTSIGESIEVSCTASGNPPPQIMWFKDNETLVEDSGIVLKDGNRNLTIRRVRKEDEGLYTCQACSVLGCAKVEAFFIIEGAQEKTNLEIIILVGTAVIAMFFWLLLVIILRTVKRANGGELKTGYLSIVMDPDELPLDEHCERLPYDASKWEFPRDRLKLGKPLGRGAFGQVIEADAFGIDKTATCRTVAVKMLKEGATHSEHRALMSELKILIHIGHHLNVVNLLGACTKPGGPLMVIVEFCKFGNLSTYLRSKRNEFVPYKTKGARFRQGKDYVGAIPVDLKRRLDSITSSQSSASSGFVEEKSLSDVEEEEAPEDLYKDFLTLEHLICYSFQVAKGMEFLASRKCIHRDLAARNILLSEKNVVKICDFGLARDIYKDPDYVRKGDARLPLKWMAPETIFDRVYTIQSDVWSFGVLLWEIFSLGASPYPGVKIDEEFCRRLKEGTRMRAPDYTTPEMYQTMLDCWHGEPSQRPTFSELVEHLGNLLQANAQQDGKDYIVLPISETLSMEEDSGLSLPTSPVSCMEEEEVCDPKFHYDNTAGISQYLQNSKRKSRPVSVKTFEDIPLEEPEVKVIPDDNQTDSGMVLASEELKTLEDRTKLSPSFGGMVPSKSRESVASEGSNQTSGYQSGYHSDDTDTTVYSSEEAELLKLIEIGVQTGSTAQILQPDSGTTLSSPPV
UniProt Q7L0J3, sequence (whole entry, looked up): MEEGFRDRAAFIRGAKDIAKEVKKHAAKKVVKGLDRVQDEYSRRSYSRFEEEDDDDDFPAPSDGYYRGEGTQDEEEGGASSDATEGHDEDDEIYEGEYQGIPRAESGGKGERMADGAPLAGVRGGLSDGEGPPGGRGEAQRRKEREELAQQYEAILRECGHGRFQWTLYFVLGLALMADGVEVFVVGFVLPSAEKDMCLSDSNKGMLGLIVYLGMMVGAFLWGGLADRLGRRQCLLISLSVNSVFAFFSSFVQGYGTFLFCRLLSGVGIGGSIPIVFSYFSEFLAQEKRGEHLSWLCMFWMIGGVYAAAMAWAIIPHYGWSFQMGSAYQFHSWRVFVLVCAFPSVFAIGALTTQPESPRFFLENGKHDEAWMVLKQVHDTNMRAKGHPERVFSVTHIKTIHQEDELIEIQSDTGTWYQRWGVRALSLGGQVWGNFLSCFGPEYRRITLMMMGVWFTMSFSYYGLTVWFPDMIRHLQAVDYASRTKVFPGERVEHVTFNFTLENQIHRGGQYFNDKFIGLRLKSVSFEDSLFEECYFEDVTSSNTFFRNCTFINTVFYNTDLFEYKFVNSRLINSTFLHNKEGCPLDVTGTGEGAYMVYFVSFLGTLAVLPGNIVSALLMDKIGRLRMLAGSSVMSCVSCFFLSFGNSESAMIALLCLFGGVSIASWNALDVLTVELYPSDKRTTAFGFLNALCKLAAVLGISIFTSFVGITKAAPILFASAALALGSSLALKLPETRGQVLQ

Cc1cc(=O)oc2c(F)c(OP(=O)(O)O)c(F)cc12 — kcat (PTPN11 (Homo sapiens, UniProt Q06124); dephosphorylation, substrate): 81.8 ± 5.84 s⁻¹
Cc1ccc2c(c1Br)C(O)(CC(=O)c1ccc3c(c1)OCO3)C(=O)N2 (stereo not shown) — koff (Uncharacterized protein (Trypanosoma brucei brucei, UniProt Q386Q8); binding, surface plasmon resonance; Trypanosoma brucei; with: UTP 500 µM): 0.21 ± 0.03 s⁻¹
CCCc1nc2ccc(N(Cc3ccco3)C(=O)c3ccccc3)cc2c(=O)n1Cc1ccc(-c2ccccc2-c2nnn[nH]2)cc1 — Ki (AGTR2; ligand displacement, radioligand): 0.35 nM
C=C1CC[C@H](OCCCNC(=O)CCOCCOCCOCCOCCOCCOCCOCCOCCOCCOCCOCCOCCOCCOCCOCCOCCOCCOCCOCCOCCOCCOCCOCCOCCOCCOCCOCCOCCOCCOCCOCCOCCOCCOCCOCCOCCNC(=O)CCN2C(=O)CC(SC[C@H](NC(=O)[C@H](Cc3ccccc3)NC(=O)[C@H](CC(N)=O)NC(=O)[C@H](Cc3c[nH]cn3)NC(=O)[C@@H](NC(=O)[C@H](CC(=O)O)NC(=O)[C@H](CCC(N)=O)NC(=O)[C@H](CC(C)C)NC(=O)[C@H](CCCCN)NC(=O)[C@H](CCCCN)NC(=O)[C@H](CCCNC(=N)N)NC(=O)[C@H](CC(C)C)NC(=O)[C@H](Cc3c[nH]c4ccccc34)NC(=O)[C@H](CCC(=O)O)NC(=O)[C@@H](NC(=O)[C@H](CCCNC(=N)N)NC(=O)[C@H](CCC(=O)O)NC(=O)[C@H](CCSC)NC(=O)[C@H](CO)NC(=O)[C@H](CC(N)=O)NC(=O)[C@H](CC(C)C)NC(=O)[C@H](Cc3c[nH]cn3)NC(=O)[C@H](CCCCN)NC(=O)CNC(=O)[C@H](CC(C)C)NC(=O)[C@H](CC(N)=O)NC(=O)[C@H](Cc3c[nH]cn3)NC(=O)[C@H](CCSC)NC(=O)[C@H](CC(C)C)NC(=O)[C@H](CCC(N)=O)NC(=O)[C@@H](NC(=O)[C@H](CCC(=O)O)NC(=O)[C@H](CO)NC(=O)[C@@H](NC(=O)[C@@H](N)CO)C(C)C)[C@@H](C)CC)C(C)C)C(C)C)C(N)=O)C2=O)C/C1=C/C=C1\CCC[C@]2(C)[C@@H]([C@H](C)CCCC(C)(C)O)CC[C@@H]12 (stereo partly shown) — dose-normalized Cmax (Sprague Dawley rat; subcutaneous, 3 µg/kg daily, 89 days; relative to: 1 µg/kg dose): 0.99
[64Cu+2].c1ccc(CNCc2ccc(CN3CCCN4CCNCCCN(CC4)CC3)cc2)nc1 — tumour-to-blood ratio (CXCR4; NOD/SCID mouse, U87 and U87-stb-CXCR4 xenografts; iv, 90 min, no blocking dose; relative to: U87-stb-CXCR4 tumour over blood): 11.5 ± 2.17
Oc1ccc(/C=C/c2nc(CCc3ccccc3)no2)cc1O — remaining activity (ALOX12 (Homo sapiens, UniProt P18054); enzyme activity in cells, inhibitor, HPLC; HEK293; 1 µM): 68.2%
CNC(=O)c1ccc(N2CCN(Cc3ccc4nc(C)c(=O)[nH]c4c3F)CC2)c([18F])n1 — reduction of binding (Poly [ADP-ribose] polymerase 1 (Mus musculus, UniProt P11103); in vitro autoradiography; mice, whole brain sections; dose not given; relative to: knockout over wild type): > 65%
CCCC[C@H](NC(=O)CCCCCCCNC(=O)CN1CCN(CC(=O)O)CCN(CC(=O)O)CC1)C(=O)N[C@H]1CC(=O)NCCCC[C@@H](C(N)=O)NC(=O)[C@H](Cc2c[nH]c3ccccc23)NC(=O)[C@H](CCCNC(=N)N)NC(=O)[C@@H](Cc2ccccc2)NC(=O)[C@H](Cc2c[nH]cn2)NC1=O [copper-64 labelled] — tissue uptake (C57 mice, heart; intravenous, 0.37 MBq, 4 h): 0.12 ± 0.06 %ID/g
[3H]C([3H])([3H])c1cnccc1CN1C[C@@H](c2cc(F)c(F)c(F)c2)CC1=O — Bmax (SV2A (Homo sapiens, UniProt Q7L0J3); radioligand binding, saturation binding; human Alzheimer disease, pooled frontal cortex homogenate): 0.18 pmol/mg
CNS(=O)(=O)Nc1cccc(-n2c(=O)n(C3CC3)c(=O)c3c(Nc4ccc(I)cc4F)n(C)c(=O)c(C)c32)c1 — outcome (MAP2K2 (Homo sapiens, UniProt P36507); substrate phosphorylation, inhibitor; 1 µM): inhibited
CCCCCCCC/C=C\CCCCCCCC(=O)O[C@@H]1C=CCO[C@@H]1COP(=O)(O)S (stereo partly shown) — Emax (LPAR2 (Homo sapiens, UniProt Q9HBW0); agonist, TGFα shedding): 39%
N#Cc1cccc(-c2ccc(=O)n(Cc3cccc(-c4ncc(OCC5CCN(CC(=O)N6CCN(CCNc7ccc8c(c7)C(=O)N(C7CCC(=O)NC7=O)C8=O)CC6)CC5)cn4)c3)n2)c1 (stereo not shown) — Dmax (MET (Homo sapiens, UniProt P08581); degrader; EBC-1): 99%
CCCCCCCCCCCC(=O)NCCC(=O)N[C@@H](CCCNC(=N)N)C(=O)N[C@@H](CCCNC(=N)N)C(=O)N[C@@H](CCCNC(=N)N)C(=O)N[C@@H](CCCNC(=N)N)C(=O)N[C@H](CCCNC(=N)N)C(=O)N[C@H](CCCNC(=N)N)C(=O)N[C@H](CCCNC(=N)N)C(=O)N[C@H](CCCNC(=N)N)C(=O)N[C@H](CCCNC(=N)N)C(=O)N[C@@H](CCCCNC(=S)Nc1ccc2c(c1)C(=O)OC21c2ccc(O)cc2Oc2cc(O)ccc21)C(N)=O — retained fluorescence (Jurkat; flow cytometry; 10 µM, 6 h, loaded 10 min at 37 °C, then washed; relative to: 0 h, higher = more retained): ~50%
Cc1cn([C@H]2C[C@H](O)[C@@H](COP(=O)(O)OP(=O)(O)C(Br)(Br)P(=O)(O)O)O2)c(=O)[nH]c1=O — kpol (POLB I260M; nucleotide incorporation rate, substrate, single-turnover kinetics; single-nucleotide gapped DNA; 37 °C, I260M, correct incorporation, with: dTTP opposite template A): 0.19 ± 0.01 s⁻¹
CCC1CC2C(C)=CC3C(=O)CCCC3C=CC(C)=CC2C(=O)O1 (stereo not shown) — R3 fibril reduction (Microtubule-associated protein tau, R3 peptide oligomers (MAPT, Homo sapiens, UniProt P10636); thioflavin T fluorescence; 1000 µM): 83.8%
Nc1nc2c(ncn2C2CC(O)C(COP(=O)(O)OP(=O)(O)C(Cl)P(=O)(O)O)O2)c(=O)[nH]1 (mixture of isomers) — kpol (POLB I260M; nucleotide incorporation rate, substrate, single-turnover kinetics; single-nucleotide gapped DNA; 37 °C, I260M, misincorporation, with: dGTP opposite template A): 0.0058 ± 0.001 s⁻¹
O[C@@H]1[C@@H](O)[C@H](O)C[C@H]2O[C@@H]12 — kinact/Ki (Exo-1,4-beta-xylosidase xlnD (xlnD, Emericella nidulans, UniProt Q5BAS1); covalent inhibitor; Aspergillus nidulans; pH 4.5): 167 M⁻¹ s⁻¹
COc1cc2c(cc1OC)C(c1ccc(F)cc1F)N(CCCOc1ccc(CCC(=O)O)cc1)CC2 (stereo not shown) — transactivation (PPARG (Homo sapiens, UniProt P37231, Y501A); agonist, reporter gene; CHO; 10 µM; relative to: wild type): decreased
O=Cc1c(O)ccc2ccccc12 — mRNA level (HUVEC; refers to: THBS1, CXCR4, CCL2; 75 µM, 24 h): decreased
O=C(Nc1cnc2ccccc2c1)c1ccc(-c2ccc(Cl)cc2)o1 — activation (Nuclear receptor subfamily 4 group A member 2, ligand binding domain (Homo sapiens, UniProt P43354); reporter gene, agonist, Gal4-Nurr1 hybrid reporter; HEK-293T; 3 µM, crude library product; relative to: vehicle (0.1% DMSO)): > 1.5 fold
C[n+]1cn(C2OC(COP(=O)(O)OP(=O)([O-])OP(=O)(O)OCC3OC(n4cnc5c(=O)[nH]c(N)nc54)C(O)C3O)C(O)C2O)c2nc(NCc3ccccc3)[nH]c(=O)c21 (stereo not shown) — melting temperature (Eif4e (Mus musculus, UniProt P63073); differential scanning fluorimetry; 100 µM): 50.7 °C
COc1ccc(-c2cc(C(F)(F)F)nc(NCc3ccccc3)n2)cc1OC — Emax (SCTR; increase of tracer binding, TR-FRET; HEK293 membranes; with: Fluo-Sec 6 nM): 147 ± 11%
OC1CCCN(CCCNc2cc(-c3ccccc3)nc3ccnn23)C1 (stereo not shown) — signal attenuation (DNA dC->dU-editing enzyme APOBEC-3A (Homo sapiens, UniProt P31941); binding, 1H CPMG NMR): 55.5 ± 6.5%
CCCCC/C=C/C(=O)CCc1ccc(O)c(OC)c1 — IC50 (mouse mAb 1-D6; antibody binding, indirect competitive ELISA; with: coating antigen 1-OVA): 0.658 µg/mL (≈ 2.38 µM)
Nc1nc2c(ncn2C2CC(O)C(COP(=O)(O)OP(=O)(O)C(F)(Cl)P(=O)(O)O)O2)c(=O)[nH]1 (mixture of isomers) — kpol/Kd (POLB I260M; nucleotide incorporation, substrate, single turnover kinetics; dG misincorporation opposite A): 3.4 ± 0.91 M⁻¹ s⁻¹
Oc1cc(F)ccc1Oc1ccccc1 — residence time (Enoyl-[acyl-carrier-protein] reductase [NADPH] FabI (Staphylococcus aureus, UniProt Q6GI75); binding): 2.4 min
NC(=O)C1CCNC(=O)C(Cc2ccc([N+](=O)[O-])cc2)NC(=O)C(Cc2ccco2)NC(=O)C(CC2CC2)NC(=O)C=CC(=O)N1 (stereo not shown) — enrichment factor (KDR (Homo sapiens, UniProt P35968); DNA-templated library selection; one selection round): 1.6
[64Cu+2].c1cnc(CNCc2ccc(CN3CCCN4CCNCCCN(CC4)CC3)cc2)nc1 — tumour-to-tissue ratio (CXCR4; NOD/SCID mouse, U87 and U87-stb-CXCR4 xenografts; iv, 90 min, no blocking dose; relative to: U87 tumour over muscle): 15.8 ± 7.01
CC(=O)N[C@@H](Cc1c[nH]c2ccccc12)C(=O)N[C@@H](Cc1c[nH]c2ccccc12)C(=O)N[C@@H](Cc1c[nH]c2ccccc12)C(=O)N[C@@H](Cc1c[nH]c2ccccc12)C(=O)N[C@@H](Cc1c[nH]c2ccccc12)C(=O)N[C@@H](Cc1c[nH]c2ccccc12)C(=O)NCCCC[C@@H]1NC(=O)[C@H](CCCNC(=N)N)NC(=O)[C@H](CCCNC(=N)N)NC(=O)[C@H](CCCNC(=N)N)NC(=O)[C@H](CCCNC(=N)N)NC(=O)[C@H](CCCNC(=N)N)NC(=O)[C@H](CCCNC(=N)N)NC1=O — remaining activity (Cyclin-dependent kinase 2, with cyclin A1 (CDK2, Homo sapiens, UniProt P24941); kinase activity, Reaction Biology radiometric; concentration not given, with: ATP 200 µM; relative to: DMSO): 5.9%
Nc1nc2c(ncn2[C@H]2C[C@H](O)[C@@H](COP(=O)(O)OP(=O)(O)C(Cl)(Cl)P(=O)(O)O)O2)c(=O)[nH]1 — kpol (POLB I260M; nucleotide incorporation rate, substrate, single-turnover kinetics; single-nucleotide gapped DNA; 37 °C, I260M, misincorporation, with: dGTP opposite template A): 0.003 ± 0.0002 s⁻¹
Nc1nc2c(ncn2[C@H]2C[C@H](O)[C@@H](COP(=O)(O)OP(=O)(O)[C@H](F)P(=O)(O)O)O2)c(=O)[nH]1 — kpol (DNA polymerase beta (POLB, Homo sapiens, UniProt P06746, R183A); substrate, pre-steady-state kinetics; incorporation opposite dC in gapped DNA): 0.27 s⁻¹
COc1cc2c(CCNC(C)=O)c[nH]c2cc1OS(=O)(=O)O — concentration (Abcg2 (mouse); FVB/N wild-type male mice, small intestine; oral, 10 mg/kg melatonin, 1 h): 230 ± 110 ng/g
COc1ccc(-c2cc(C(F)(F)F)nc(NCc3ccccc3)n2)cc1 — Emax (SCTR; cAMP, agonist): 19%
CCc1nc2ccc(N(Cc3ccccc3)C(=O)c3cccs3)cc2c(=O)n1Cc1ccc(-c2ccccc2-c2nn[nH]n2)cc1 — Ki (AGTR2; ligand displacement, radioligand): 0.34 nM
CC(C=O)Cc1ccc(C(C)(C)C)cc1 (stereo not shown) — fold increase (Olfactory receptor 10S1 (OR10S1, Homo sapiens, UniProt Q8NGN2); GFP reporter, agonist; yeast olfactory receptor sensor; relative to: DMSO): > 2 fold
NS(=O)(=O)Nc1ncnc(OCCOc2ncc(Br)cn2)c1-c1ccc(Br)cc1 — Vmax (Eadie-Hofstee plot, refers to: compound formation; male Sprague-Dawley rat, liver microsomes; 1500 mg/kg daily, 4 weeks): 516 ± 15 pmol/min/mg
COc1cc(CCC(C)=O)ccc1O — IC50 (mouse mAb 1-D6; antibody binding, indirect competitive ELISA; with: coating antigen 6-OVA): 0.2 µg/mL (≈ 1.03 µM)
CCOC(=O)CNc1nc(-c2ccccc2)cc(C(F)(F)F)n1 — Emax (SCTR; increase of tracer binding, TR-FRET; HEK293 membranes; with: Fluo-Sec 6 nM): 167 ± 13%
OC[C@H]1Oc2c(I)c(I)cc3c2[C@@H](OC3)[C@H]1O — affinity increase (Galectin-8, N-terminal CRD (LGALS8, Homo sapiens, UniProt O00214); fluorescence polarization; unit not given; relative to: methyl beta-galactoside): > 3
CC(=O)N[C@@H](CC(=O)O)C(=O)N[C@@H](CCC(=O)O)C(=O)N[C@H](C(=O)N[C@@H](CC(=O)O)C(=O)Nc1ccc2c(C)cc(=O)oc2c1)C(C)C — Vmax (Caspase-4 (CASP4, Homo sapiens, UniProt P49662); substrate cleavage, substrate, fluorogenic AMC release; enzyme 0.25 activity units/µL): 863 ± 31.6 RFU/min
